Measurements from different studies.
Compare with care: the assays were run in different laboratories.
Read-out: metabolic stability

`C=CC(=O)N1CCCC(n2c(=O)c3ncccc3n(Cc3ccc(Oc4ccccc4)cc3)c2=O)C1` (stereo not shown) gave a hepatocyte CLint of 147 µL/min/10⁶ cells (male Sprague-Dawley rat, hepatocytes; 1 µM).
The scaled CLint of `Cc1ncsc1-c1ccc([C@@H]2CCCCCCNC(=O)C[C@@H]3N=C(c4ccc(cc4)OCCCCCC(=O)N[C@@H](C(C)(C)C)C(=O)N4C[C@H](O)C[C@H]4C(=O)N2)c2c(sc(C)c2C)-n2c(C)nnc23)cc1` is reported as 15.3 mL/min/kg (rat, liver microsomes; 1 µM).
For `COc1cc(C)c(C(N)=O)cn1`, the hepatocyte CLint was 6 µL/min/10⁶ cells (male Wistar rat, hepatocytes; 1 µM, pH 7.4).
`O=C(Nc1nc(C(F)(F)F)co1)C1c2ccccc2Oc2ccccc21` has a scaled CLint of 661 mL/min/kg (rat, liver microsomes; 1 µM, pH 7.4).
`O=C(c1ccc(C23CC(S(F)(F)(F)(F)F)(CO2)C3)cc1)N1CCN(c2ncccn2)CC1` gave a microsomal CLint of 805 µL/min/mg (rat, liver microsomes).
`Cc1ccc2c(c1)nc(NC(=O)c1cccc(C(F)(F)F)c1)n2[C@H]1CC[C@H](N)CC1` has a microsomal CLint of 184 µL/min/mg (rat, liver microsomes).
With `O=C(Nc1cc(-c2ccnc3[nH]ccc23)c(Cl)cn1)[C@H]1CCC[C@@H](NC(=O)C(F)(F)F)C1` the microsomal CLint was 39.8 µL/min/mg (rat, liver microsomes).
With `CNC(=O)C1CCCN(C(=O)C2CC3CCC2N3C(=O)[C@@H]2C[C@@H](O)CN2C(=O)NCc2cccc(Cl)c2F)C1` (mixture of isomers) the microsomal CLint was 4.4 µL/min/mg (rat, liver microsomes).
`CCC1(CC)CC(=O)N(C2CCOc3ccc(C(=O)NC4CC(C)(C)Oc5ccccc54)cc32)C(=N)N1` (stereo not shown) has a hepatocyte CLint of 22.5 µL/min/10⁶ cells (rat, hepatocytes).
`Cc1cc(C(=O)Nc2nc3cccc(C)c3n2[C@H]2CCCCN(C(=O)/C=C/CN(C)C)C2)ccn1` has a microsomal CLint of 22.2 µL/min/mg (rat, liver microsomes).
The hepatocyte CLint of `COc1ccc(C(N)=O)cn1` is reported as 3.3 µL/min/10⁶ cells (male Wistar rat, hepatocytes; 1 µM, pH 7.4).
The hepatocyte CLint of `CCC1(CC)CC(=O)N(C2c3cc(C(=O)NC4c5ccccc5CC4O)ccc3OC2(C)COC)C(=N)N1` (stereo not shown) is reported as 13.5 µL/min/10⁶ cells (rat, hepatocytes).
`CCC(CC)CNC(=N)NC(=N)NCCCCCCNC(=N)NC(=N)NCC(CC)CC` has a hepatocyte CLint of 10.7 µL/min/10⁶ cells (rat, hepatocytes; 1 µM).

Excerpt of the above:
The hepatocyte CLint of `CCC1(CC)CC(=O)N(C2c3cc(C(=O)NC4c5ccccc5CC4O)ccc3OC2(C)COC)C(=N)N1` (stereo not shown) is reported as 13.5 µL/min/10⁶ cells (rat, hepatocytes).
